Published values of several laboratories.
Protocols differ between the studies behind these lines. “And” joins repeats or separate records; there may be more than shown. Numbers after ± are the reported error. In brackets after ≈: the same amount, converted by molar mass.

SMILES	tested on	assay	test system	setting	how to read	quantity	value
CS(=O)(=O)c1ccc(-c2ccc3ncnc(Nc4ccc(OCc5cccc(F)c5)c(Cl)c4)c3c2)cc1	Plasmodium falciparum	parasite growth, SYBR Green	D6	blood stage	–	EC50	0.12 µM
CC(C)C[C@H](NC(=O)[C@H](CC(C)C)NC(=O)[C@H](CCCCN)NC(=O)[C@H](Cc1ccccc1)NC(=O)[C@@H](NC(=O)[C@H](CCCNC(=N)N)NC(=O)[C@@H](N)CCCCN)C(C)C)C(=O)N[C@@H](CCCCN)C(=O)N[C@@H](CCCNC(=N)N)C(=O)N[C@@H](Cc1ccc(O)cc1)C(=O)N[C@@H](Cc1c[nH]c2ccccc12)C(=O)N[C@@H](CCCNC(=N)N)C(=O)N[C@@H](CCC(N)=O)C(=O)N[C@@H](CC(C)C)C(=O)N[C@@H](CCCCN)C(=O)N[C@@H](CCCCN)C(=O)N1CCC[C@H]1C(=O)N[C@H](C(=O)N[C@@H](CCCNC(=N)N)C(=O)NCCOCCOCC(=O)O)C(C)C	Pseudomonas aeruginosa and Staphylococcus aureus	crystal violet	–	32 µM, 24 h, polymicrobial biofilm	–	biofilm inhibition	> 95%
CC(=O)c1c(O)c(C)c(O)c2c1OC1=CC(=O)C(=C(C)NCCCCOC3OC4OC5(C)CCC6C(C)CCC(C3C)C46OO5)C(=O)C12C (mixture of isomers)	Plasmodium berghei	–	ANKA GFP, NMRI mouse	oral, 4 x 10 mg/kg, day 4 post infection	–	parasitaemia inhibition	51.2%
[2H]C([2H])(c1cc(F)c(F)cc1F)n1c(=O)n(Cc2ncn(C)n2)c(=O)[nH]/c1=N\c1cc2cn(C)nc2cc1Cl	Betacoronavirus 1	viral replication, qPCR	OC43, human	–	–	IC50	0.13 µM
Fc1cccc(COc2ccc(Nc3ncnc4ccc(-c5cccc(-n6cccn6)c5)cc34)cc2Cl)c1	Plasmodium falciparum	parasite growth, SYBR Green fluorescence	W2, drug-resistant	–	–	EC50	> 15 µM
CCOC(=O)C1(Cc2cccc(C)c2)Oc2cc(F)ccc2N(Cc2cccc(C)c2)C1=O (centres unmarked)	Arabidopsis thaliana	stem length, petri dish germination	Col-0, 1/2 MS medium	200 µg/mL, 7 days, 22 °C, dark	–	inhibition	79.2%
CC(C)(C)OC(=O)N[C@@H](Cc1ccc(O)cc1)C(=O)N1CC[C@@H]2O[C@@H]3c4ccccc4OC(C)(C)[C@H]3C[C@@H]2C1	HIV-1 subtype C	viral replication	–	96 h	–	IC50	46.1 µM
COc1ccc(C2=[N+]([O-])c3ccccc3N3CCN=C23)cc1	Fusobacterium nucleatum	microbial growth	–	–	–	MIC50	≤ 0.06 µg/mL
O=S(=O)(c1ccc(-c2ccc3ncnc(Nc4ccc(OCc5ccccc5F)c(Cl)c4)c3c2)cc1)N1CCOCC1	Plasmodium falciparum	parasite growth, SYBR Green fluorescence	C235 (TM91C235), drug-resistant	–	–	EC50	0.22 µM
CCOC(=O)C1(Cc2ccc([N+](=O)[O-])cc2)Oc2cc(F)ccc2N(Cc2ccc([N+](=O)[O-])cc2)C1=O (centres unmarked)	Arabidopsis thaliana	stem length, petri dish germination	Col-0, 1/2 MS medium	200 µg/mL, 7 days, 22 °C, dark	–	inhibition	60.6%
CN(C(=O)c1ccn2ncc(-c3ccc(C(N)=O)cc3)c2c1)c1ccc(C#N)cn1	Cryptosporidium parvum	–	UGA1 Nluc, IFN-gamma knockout C57BL/6 mice, faeces	oral, 10 mg/kg daily, 192 h post infection, treatment days 3-9	higher means more parasites	faecal Nluc luminescence	7 a.u. and 46 a.u. and 10 a.u. and 260 a.u. and 15 a.u.
[O-][N+]1=C(c2ccc(Cl)cc2)C2=NCCCN2c2ccccc21	Fusobacterium nucleatum	–	–	–	–	MIC90	1 µg/mL
CCCCCCCCCC(=O)NCCCC[C@H](NC(=O)CCCCCCCCC)C(=O)N[C@@H](CCCCNC(=O)CCCCCCCCC)C(=O)NCC(=O)NCC(=O)NCC(=O)N[C@@H](CS)C(=O)N[C@@H](CCCNC(=N)N)C(=O)N[C@@H](CCCCN)C(=O)N1CCC[C@H]1C(=O)N[C@@H](CS)C(=O)N[C@@H](CCCNC(=N)N)C(=O)N[C@@H](CCCCN)C(=O)N1CCC[C@H]1C(N)=O	Candida albicans	broth microdilution	SP 3902, RPMI-1640	48 h, 30 °C	–	MIC	32 µM (≈ 60 µg/mL)
NCCO.O=C(O)C(Cl)Cl	Xanthium sibiricum	–	–	15 mg/mL, 21 days, pre-emergence, greenhouse	–	herbicidal inhibition	0%
[O-][N+]1=C(c2ccsc2)C2=NCCCN2c2ccccc21	Fusobacterium nucleatum	microbial growth	–	–	–	MIC50	0.25 µg/mL (≈ 0.882 µM)
FC(F)(F)c1cccc(CNc2nc(NC3CCN(Cc4ccccc4)CC3)c3nc[nH]c3n2)c1	Cryptococcus neoformans	RNA-seq, refers to: CNAG_05321	–	48 µg/mL, 3 h	reference: untreated	mRNA fold change	1.09
C[C@H](NC(=O)[C@@H](O)c1cc(F)cc(F)c1)C(=O)N[C@@H]1C(=O)N(C)c2ccccc2-c2ccccc21	dengue virus 2	viral infection, luciferase reporter virus	–	1 nM, 48 h	–	inhibition	5.1%
CCOC(=O)C1(Cc2ccccc2)Oc2cc(F)ccc2N(Cc2ccccc2)C1=O (centres unmarked)	Arabidopsis thaliana	–	Col-0, seed germination, dark	200 µg/mL, 7 days, 22 °C	–	stem length inhibition	47.2%
Fc1cccc(COc2ccc(Nc3ncnc4ccc(-c5ccccc5)cc34)cc2Cl)c1	Plasmodium falciparum	parasite growth, SYBR Green	D6	blood stage	–	EC50	0.79 µM
CCCCCC(=O)NCCCC[C@H](NC(=O)CCCCC)C(=O)N[C@@H](CCCCNC(=O)CCCCC)C(=O)NCC(=O)NCC(=O)NCC(=O)N[C@@H](CS)C(=O)N[C@@H](CCCNC(=N)N)C(=O)N[C@@H](CCCCN)C(=O)N1CCC[C@H]1C(=O)N[C@@H](CS)C(=O)N[C@@H](CCCNC(=N)N)C(=O)N[C@@H](CCCCN)C(=O)N1CCC[C@H]1C(N)=O	Candida albicans	broth microdilution	SP 3931, RPMI-1640	48 h, 30 °C	–	MIC	32 µM (≈ 54.7 µg/mL)
COc1ccc(Cn2c3cc(=O)n(Cc4cccc(Cl)n4)c(C)c3c(=O)n2-c2ccccn2)cc1	human respiratory syncytial virus	–	recombinant reporter virus	concentration not given, scale 0 to 100, together with: adenosine 33.3 µM	–	normalized viral replication	0

SMILES	tested on	assay	test system	setting	how to read	quantity	value
COc1ccc(Nc2ncnc3ccc(-c4ccc(S(=O)(=O)N5CCOCC5)cc4)cc23)cc1Cl	Plasmodium falciparum	parasite growth, SYBR Green fluorescence	W2, drug-resistant	–	–	EC50	1.7 µM
CCc1nn(C)c2nc(-c3ccc(C(=O)O)cc3)nc(NCc3ccccc3)c12	Cryptosporidium parvum	–	HCT-8	3 x EC90, 48 h	reference: DMSO control	parasite number	41.2% and 51.3% and 59.4% and 31.2%
Cc1ccc(N2CC3CC(C2)N3C)cc1C(=O)NC1(c2ccc3c4c(cccc24)C(=O)N3C)CC1	Betacoronavirus 1	viral replication	Huh-7, OC43	3 µM	–	inhibition	0%
CCOC(=O)C1(Cc2cccc(C(C)C)c2)Oc2cc(F)ccc2N(Cc2cccc(C(C)C)c2)C1=O (centres unmarked)	Arabidopsis thaliana	root length, petri dish germination	Col-0, 1/2 MS medium	200 µg/mL, 7 days, 22 °C, dark	–	inhibition	52%
O=C(c1ccc(-c2ccc3ncnc(Nc4ccc(OCc5cccc(F)c5)c(Cl)c4)c3c2)cc1)N1CCOCC1	Plasmodium falciparum	parasite growth, SYBR Green	D6	blood stage	–	EC50	0.41 µM
CC(C)[C@H]1NC(=O)[C@H](Cc2ccccc2)NC(=O)[C@@H](C(C)C)NC(=O)[C@@H](C)NC(=O)[C@H](C)NC(=O)[C@@H](Cc2c(-c3ccc(-c4ccc5ccccc5c4)cc3)[nH]c3ccccc23)NC(=O)[C@@H](C)NC1=O	Candida albicans	broth dilution	–	–	–	MIC90	> 50 µM
O=S(=O)(c1ccc(-c2ccc3ncnc(Nc4ccc(O)c(Cl)c4)c3c2)cc1)N1CCOCC1	Plasmodium falciparum	parasite growth, SYBR Green fluorescence	C235 (TM91C235), drug-resistant	–	–	EC50	18 µM
C[C@H]1[C@H](OC(=O)CCC(=O)OCc2nnn(-c3cc4ccc(O)cc4oc3=O)c2COC(=O)CCC(=O)O[C@@H]2O[C@@H]3O[C@@]4(C)CC[C@H]5[C@H](C)CC[C@@H]([C@H]2C)[C@@]35OO4)O[C@@H]2O[C@@]3(C)CC[C@H]4[C@H](C)CC[C@@H]1[C@@]24OO3	Plasmodium berghei	–	NK65/GFP, mouse	subcutaneous, 22 µmol/kg daily for four days	–	cure rate	25%
O=C(c1ccc(-c2ccc3ncnc(Nc4ccc(OCc5cccc(F)c5)c(Cl)c4)c3c2)cc1)N1CCCCC1	Plasmodium falciparum	parasite growth, SYBR Green fluorescence	W2, drug-resistant	–	–	EC50	0.88 µM
CCOC(=O)C1(CC)Oc2cc(F)ccc2N(CC)C1=O (centres unmarked)	Arabidopsis thaliana	stem length, petri dish germination	Col-0, 1/2 MS medium	50 µg/mL, 7 days, 22 °C, dark	–	inhibition	78.3%
Cc1cc(C(=O)Nc2nc3cccc(C)c3n2[C@H]2CCCCN(C(=O)/C=C/CN(C)C)C2)ccn1	Trypanosoma brucei brucei	–	2T1 parental	5 x EC50, 36 h	reference: time 0 h	cell growth	45.3% and 53.3% and 50%
O=C1NC2(CC2)COc2ncc(F)cc2[C@H]2COCCN2c2ccn3ncc1c3n2	–	–	Sprague-Dawley rat, female, spleen	oral, 10 mg/kg/day, 4 weeks, end of treatment	–	organ-to-body weight ratio	0.343 ± 0.076%
CN(C)c1nc(NCc2ccc3ccccc3c2)c(/N=N/c2ccc(Cl)cc2)c(N(C)C)n1	Plutella xylostella	leaf dipping	–	200 mg/L, 96 h	–	mortality	83.3 ± 5.8%
CC[C@H](C)CCCCC(=O)N[C@@H](CCN)C(=O)N[C@H](C(=O)N[C@@H](CCN)C(=O)N[C@H]1CCNC(=O)[C@H]([C@@H](C)O)NC(=O)[C@H](CCN)NC(=O)[C@H](CCN)NC(=O)[C@H](CC(C)C)NC(=O)[C@@H](CC(C)C)NC(=O)[C@H](CCN)NC1=O)[C@@H](C)O	Escherichia coli	daily serial passaging	ATCC 8739	highest sub-MIC, 42 days	reference: initial MIC	MIC fold change	3.16
CCOC(=O)C1(CC=C(C)C)Oc2cc(F)ccc2N(CC=C(C)C)C1=O (centres unmarked)	Arabidopsis thaliana	root length, petri dish germination	Col-0, 1/2 MS medium	200 µg/mL, 7 days, 22 °C, dark	–	inhibition	52%
CC(=O)c1c(O)c(C)c(O)c2c1OC1=CC(=O)C(=C(C)NCCCC(=O)OC3OC4OC5(C)CCC6C(C)CCC(C3C)C46OO5)C(=O)C12C (centres unmarked)	Plasmodium berghei	–	ANKA GFP, NMRI mouse	oral, 4 x 100 mg/kg, day 4 post infection	–	parasitaemia inhibition	99.4%
CCOC(=O)C1(Cc2ccccc2C#N)Oc2cc(F)ccc2N(Cc2ccccc2C#N)C1=O (centres unmarked)	Arabidopsis thaliana	stem length, petri dish germination	Col-0, 1/2 MS medium	50 µg/mL, 7 days, 22 °C, dark	–	inhibition	27.3%
CCCCCCCCCCCC(=O)NCCCC[C@H](NC(=O)CCCCCCCCCCC)C(=O)N[C@@H](CCCCNC(=O)CCCCCCCCCCC)C(=O)NCC(=O)NCC(=O)NCC(=O)N[C@@H](CS)C(=O)N[C@@H](CCCNC(=N)N)C(=O)N[C@@H](CCCCN)C(=O)N1CCC[C@H]1C(=O)N[C@@H](CS)C(=O)N[C@@H](CCCNC(=N)N)C(=O)N[C@@H](CCCCN)C(=O)N1CCC[C@H]1C(N)=O	Candida albicans	broth microdilution	SP 3931, RPMI-1640	48 h, 30 °C	–	MIC	> 128 µM
CCOC(=O)C1(Cc2ccc(-c3ccccc3)cc2)Oc2cc(F)ccc2N(Cc2ccc(-c3ccccc3)cc2)C1=O (centres unmarked)	Arabidopsis thaliana	root length, petri dish germination	Col-0, 1/2 MS medium	200 µg/mL, 7 days, 22 °C, dark	–	inhibition	77.2%
CC(O)CN(CC(C)O)CC(C)O.O=C(O)C(Cl)Cl (centres unmarked)	Xanthium sibiricum	–	–	15 mg/mL, 21 days, post-emergence, greenhouse	–	herbicidal inhibition	-56%

For quick reference, copied from above:
SMILES	tested on	assay	test system	setting	how to read	quantity	value
CCCCCCCCCC(=O)NCCCC[C@H](NC(=O)CCCCCCCCC)C(=O)N[C@@H](CCCCNC(=O)CCCCCCCCC)C(=O)NCC(=O)NCC(=O)NCC(=O)N[C@@H](CS)C(=O)N[C@@H](CCCNC(=N)N)C(=O)N[C@@H](CCCCN)C(=O)N1CCC[C@H]1C(=O)N[C@@H](CS)C(=O)N[C@@H](CCCNC(=N)N)C(=O)N[C@@H](CCCCN)C(=O)N1CCC[C@H]1C(N)=O	Candida albicans	broth microdilution	SP 3902, RPMI-1640	48 h, 30 °C	–	MIC	32 µM (≈ 60 µg/mL)
NCCO.O=C(O)C(Cl)Cl	Xanthium sibiricum	–	–	15 mg/mL, 21 days, pre-emergence, greenhouse	–	herbicidal inhibition	0%
[O-][N+]1=C(c2ccsc2)C2=NCCCN2c2ccccc21	Fusobacterium nucleatum	microbial growth	–	–	–	MIC50	0.25 µg/mL (≈ 0.882 µM)
FC(F)(F)c1cccc(CNc2nc(NC3CCN(Cc4ccccc4)CC3)c3nc[nH]c3n2)c1	Cryptococcus neoformans	RNA-seq, refers to: CNAG_05321	–	48 µg/mL, 3 h	reference: untreated	mRNA fold change	1.09
C[C@H](NC(=O)[C@@H](O)c1cc(F)cc(F)c1)C(=O)N[C@@H]1C(=O)N(C)c2ccccc2-c2ccccc21	dengue virus 2	viral infection, luciferase reporter virus	–	1 nM, 48 h	–	inhibition	5.1%
